Measured values of several laboratories.
Numbered parts are unrelated; each lists some results of a single study.

Set 1
Target: RNA binding protein fox-1 homolog 2, RRM domain, GST-SBP tag (RBFOX2, Homo sapiens, UniProt O43251-10, residues 100-194)
Technique: RNA Bind-n-Seq
Form: RNA
Medium: in vitro
Concentration: 365 nM
Notes: natural RNA segment, single round, ends assumed
Reference: no-protein control
Direction: higher = stronger binding
Target sequence (chain): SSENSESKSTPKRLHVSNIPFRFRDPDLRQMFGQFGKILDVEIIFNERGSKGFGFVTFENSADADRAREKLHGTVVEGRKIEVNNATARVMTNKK
Strand | RBNS enrichment (R)
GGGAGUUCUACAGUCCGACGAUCGUGUUUCCCCAACUUCUCCCUUUUAGCAGGGUCCCUUUAGAGCCCAACUCCAGGUCAAAUCUGGAGCUCAAAUCCCAGUGCUCCCUCCCCAGGAGUGGGGCCCCAACUCUUGGAAUUCUCGGGUGCCAA | 0.358
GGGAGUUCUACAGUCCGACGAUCUGGCCCCCUCAUUCAGAGACUGCCCUUCUCACGGGCUCUAUGCCUGCACUGGGAAGGAAACAAAUGUGUAUAAACUGCUGUCAAUAAAUGACACCCAGACCUUCCGGCUCUGGAAUUCUCGGGUGCCAA | 0.259
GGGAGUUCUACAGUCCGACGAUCAAGUUUAAGAUUUGCCAUAUGACGACGUGGUGACCGGGAAGUCCAGAGUCGGCAAGCAGGUGCCAGAUUUUCUAUCCCAUCAGCCAGUGCUUCACCAGGUGCAGGCUGCUUGGAAUUCUCGGGUGCCAA | 0.541
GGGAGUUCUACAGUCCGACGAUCCUGCUGCAGGGAGGCCUGGCCUAUUUUUUCUUAAAACAUAUUUUAUAAAACUACAACCUGAUCUACCCUCCAGGGCCUCCUCAGUUCCACUGAUUGAAAUUUUCUUCUUCUGGAAUUCUCGGGUGCCAA | 0.375
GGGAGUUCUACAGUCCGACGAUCUAAAACCACCAGCCUGAGCUCAAGGAUGAGGCCACAGGGCUCUGGUGGACUUCAAAUCCCAGCUUUACCGUCAUCACUGUUCAGUUUUCUUCGAAGGUACGGAUGAGGAGUGGAAUUCUCGGGUGCCAA | 0.398
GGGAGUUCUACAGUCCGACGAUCCUCUGGAGCUGGAUAGACUGAUGGCCUCACUCUCUGACUUCCGCGUUCAAAACCAUGUUCCAGCCUCUGGGCCAACUCAGCCACCGGUGGUGAGCUCCACAAAUGAGGGCUGGAAUUCUCGGGUGCCAA | 0.348
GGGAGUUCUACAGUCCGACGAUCCACAGGUGAGGCUUUUUUCAGAUCAGUGGCCACCUCUUUUAGUCUGAGGAAUCCCAGAAGCAACCAGAGACCAUCAUAAAUGUCAAAUACCGGAGUCUACCCUGCUUCACUGGAAUUCUCGGGUGCCAA | 0.455
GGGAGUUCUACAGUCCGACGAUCUGGGACAGGCUUAGGGGAAAGAGCUUGUCCUAUCUCAGGAACAAAAUUAUAGGCUGUGGGCAGAGGGUCUGAAAGGUGGGCUUUGGGGUAGUGCCCAAGCCUGGUCGUGUUGGAAUUCUCGGGUGCCAA | 1.56
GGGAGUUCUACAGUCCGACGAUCCCACUGUCCCAUCACCCUUUACCUAGCACUUGAUACCCUCCUGCAGUAGCUUCCUGCCUGGGAGAUGGCUCUCUCUGCAGAAGUCUGGUGUUUUAGCCUUCAGGUGUUUGUGGAAUUCUCGGGUGCCAA | 0.358

Set 2
Target: Centromere-binding protein 1, full length, N-terminal tag (CBF1, Saccharomyces cerevisiae, UniProt P17106, residues 1-351)
Chain of UniProt P17106 (whole entry, looked up): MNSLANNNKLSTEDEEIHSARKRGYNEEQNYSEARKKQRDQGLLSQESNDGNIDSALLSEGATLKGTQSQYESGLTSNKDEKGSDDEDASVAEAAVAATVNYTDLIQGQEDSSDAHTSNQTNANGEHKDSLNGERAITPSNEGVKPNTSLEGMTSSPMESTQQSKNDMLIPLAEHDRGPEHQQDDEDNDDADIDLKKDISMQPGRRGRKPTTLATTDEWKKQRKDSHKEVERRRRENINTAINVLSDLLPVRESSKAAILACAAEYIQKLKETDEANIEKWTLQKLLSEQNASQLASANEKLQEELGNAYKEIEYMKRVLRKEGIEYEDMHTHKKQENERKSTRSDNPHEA
Technique: protein-binding microarray
Form: double-stranded DNA, one strand shown
Medium: in vitro
Concentration: 0.8 µM
Notes: whole 60-bp probe, no competitor
Direction: higher = stronger binding
Strand | fluorescence intensity [a.u.]
CCTAACTACTATATAAACGTGTAATAGCTTCGTACAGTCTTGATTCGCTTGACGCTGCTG | 533
CTAATTGAGTGCAAAGATCTGATGCATCCCATTTTCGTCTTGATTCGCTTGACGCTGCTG | 497
GAAAAGTGTTTTACCTACGTGACAGTAAGAGTATAGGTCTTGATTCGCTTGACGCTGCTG | 659
CTAATGTGTCAACTTCGCGTGCTCGTAAAAAAGTTCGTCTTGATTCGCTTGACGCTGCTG | 609
CTAACGGATACGCAACTGATGTTGTATAGAAATTTCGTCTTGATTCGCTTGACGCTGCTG | 493
CCTAACTACTATAATCACGCAACATAGCTTCGTACAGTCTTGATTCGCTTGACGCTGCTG | 645
CTAGTAGGAATTGATCACGAAGAATTTCTAATCTTCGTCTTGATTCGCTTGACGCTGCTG | 556
GAATGTTCTTAATATCATATGACCTCTGCAACATAGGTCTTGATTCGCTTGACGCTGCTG | 1450
CTACGCCCGAGGTCACCCGCCACGGAGAGGGGCTTCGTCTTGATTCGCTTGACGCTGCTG | 541
TGTACGAAGCTATATGATGCAATTATAGTAGTTAGGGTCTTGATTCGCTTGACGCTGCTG | 503
CCTAACTACTATAGTCATGCGAGATAGCTTCGTACAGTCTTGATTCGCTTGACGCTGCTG | 545
CTATTGTCCTTCAAGTTGGTGATGCGCCGGCGATTCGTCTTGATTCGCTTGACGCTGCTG | 504
TGTACGAAGCTATAGCACACGCATATAGTAGTTAGGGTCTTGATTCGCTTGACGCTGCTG | 534
GAAATCCATTATCCACACGTTGCTGTGTCGACTTAGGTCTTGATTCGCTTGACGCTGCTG | 504
CTATACTGATTTTTTCATATGATAAGTGGATATTTCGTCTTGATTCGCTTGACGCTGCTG | 530
CCTAACTACTATAAGCACGTGCTATAGCTTCGTACAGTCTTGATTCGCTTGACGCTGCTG | 15000
CTAAGTAGCATACGTGATGTGCAAAAAATGCGCTTCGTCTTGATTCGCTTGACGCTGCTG | 851
CCTAACTACTATAATCATGCCGGATAGCTTCGTACAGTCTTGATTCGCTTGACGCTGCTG | 548
GAACCTCAAAAGGCACTCACCTGTTGACATGCCTAGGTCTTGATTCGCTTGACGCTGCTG | 524
GAATTTGTTAGTGCTGATGTAATCTTAACAAGATAGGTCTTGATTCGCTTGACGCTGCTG | 566
CTAGAATTCCTTTGTAACGTGCAAAGCATTTTATTCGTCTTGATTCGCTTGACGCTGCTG | 697
GAAATAGATATTAGTCTGCTGATTATCTAGTTTTAGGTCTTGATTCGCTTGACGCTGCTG | 618

Set 3
Target: Ras GTPase-activating protein-binding protein 1, full length (G3BP1, Homo sapiens, UniProt Q13283)
Chain of UniProt Q13283 (whole entry, looked up): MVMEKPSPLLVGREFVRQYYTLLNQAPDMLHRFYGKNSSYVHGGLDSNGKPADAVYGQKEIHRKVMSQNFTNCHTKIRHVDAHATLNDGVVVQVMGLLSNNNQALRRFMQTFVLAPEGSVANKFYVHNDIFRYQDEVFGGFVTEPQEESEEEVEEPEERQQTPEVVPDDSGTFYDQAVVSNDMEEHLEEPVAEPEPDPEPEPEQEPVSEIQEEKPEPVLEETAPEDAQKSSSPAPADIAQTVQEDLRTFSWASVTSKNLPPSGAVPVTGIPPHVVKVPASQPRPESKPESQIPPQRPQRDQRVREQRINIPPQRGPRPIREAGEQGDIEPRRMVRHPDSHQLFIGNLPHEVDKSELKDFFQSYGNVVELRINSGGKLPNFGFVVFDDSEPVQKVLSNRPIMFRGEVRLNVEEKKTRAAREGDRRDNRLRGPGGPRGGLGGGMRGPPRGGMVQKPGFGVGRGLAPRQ
Technique: RNA Bind-n-Seq
Form: RNA
Medium: in vitro
Concentration: 200 nM
Notes: whole 134-nt RNA, ends assumed
Together with: 150 mM KCl
Reference: input library
Direction: higher = stronger binding
Strand | log2 enrichment
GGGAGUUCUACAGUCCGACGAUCGUGCUACACAUCGUAUGUACCGAAUCGGGGAAAAAAAGGGGAAAAAAAGGGGAAAAAAAGGGGAAAGUAUUAUGUUACGCCGUUCGGAUCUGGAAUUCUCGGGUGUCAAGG | -0.313
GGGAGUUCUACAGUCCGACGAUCCAAGUCCUGUGCUACACAUCGUAUGUACCGAAUCGGUUUGGAAAAAGGAAAAAGGAAAGUAUUAUGUUACGCCGUUCGGAUCUGCACUUCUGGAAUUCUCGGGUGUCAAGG | -0.815
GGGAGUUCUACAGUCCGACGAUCGCAGGAAGUAAAAACAAAUGGAAAUGCUUCGGAUAGUGGCAGGGAAAGGGGUUGCUAAGGAAAGGGUGGGAUGGGAGUGGGUAAAGAGUUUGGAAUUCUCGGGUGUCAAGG | 0.874
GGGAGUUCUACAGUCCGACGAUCAGUCCUGUGCUACACAUCGUAUGUACCGAAUCGGGAAAGGGUUUUUUUGGGAAAGGGAAAGUAUUAUGUUACGCCGUUCGGAUCUGCACUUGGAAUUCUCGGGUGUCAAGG | -0.246
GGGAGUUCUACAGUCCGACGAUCAAGAUUUAGAGAUGAAUUAAAUUUAAUUAGGGGUUGCUAAGAAGCGAGCACUGACCAGAUAAGAAUGCUGGUUUUCCUAAAUGCAGUGAAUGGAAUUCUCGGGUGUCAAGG | -0.523
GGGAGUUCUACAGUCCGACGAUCACCAUGCAGAAAGGCAUCUUUGGGAAGUGGGGCAAGGGGGGGAUAGGGAGGGGGGUAACACUUUGGGAACAGGUGGUCCCAGGUCGUUUCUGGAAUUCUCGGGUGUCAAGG | 1.42
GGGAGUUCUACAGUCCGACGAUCGCAGGAAGUAAAAACAAAUGGAAAUGAAACGGAUAGUGGCAGGGGUGGGGGUUGCUAAGGAAAGGGUGGGAUGGGAGUGGGUAAAGAGUUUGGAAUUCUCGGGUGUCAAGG | 0.96
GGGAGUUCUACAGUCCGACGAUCAAGUCCUGUGCUACACAUCGUAUGUACCGAAUCGGGAAAAAGGGUUUUUGGGAGGGAAAGUAUUAUGUUACGCCGUUCGGAUCUGCACUUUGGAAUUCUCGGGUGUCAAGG | 0.256
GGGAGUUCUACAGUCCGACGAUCUCCUCAAGUCCUGUGCUACACAUCGUAUGUACCGAAUCGGGGAGGGAGGAGGAAAGUAUUAUGUUACGCCGUUCGGAUCUGCACUUCCAGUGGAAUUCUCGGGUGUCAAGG | 0.417
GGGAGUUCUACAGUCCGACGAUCCACAGACAACACGCACCCACACAGACACAGAGGGAAGGGGUUGGGAUGGGGACAGGGUGCACAGCAGGGCGGGGUAGGAGCCCAGCCCCUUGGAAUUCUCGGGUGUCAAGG | 1.78

Set 4
Target: Interferon regulatory factor 3, full length, phosphomimetic (IRF3, Homo sapiens, UniProt Q14653, residues 1-427, S386D/S396D/S398D/S402D/T404D/S405D)
Technique: protein-binding microarray
Form: double-stranded DNA, one strand shown
Medium: in vitro
Concentration: 2540 nM top
Notes: 60-bp whole probe
Together with: salmon DNA 0.4 mg/ml
Reference: random background probes
Direction: higher = stronger binding
All sequences stand within: GCCTAGCAC … GTCTTGATTCGCTTGACGCTGCTG
Target sequence (chain): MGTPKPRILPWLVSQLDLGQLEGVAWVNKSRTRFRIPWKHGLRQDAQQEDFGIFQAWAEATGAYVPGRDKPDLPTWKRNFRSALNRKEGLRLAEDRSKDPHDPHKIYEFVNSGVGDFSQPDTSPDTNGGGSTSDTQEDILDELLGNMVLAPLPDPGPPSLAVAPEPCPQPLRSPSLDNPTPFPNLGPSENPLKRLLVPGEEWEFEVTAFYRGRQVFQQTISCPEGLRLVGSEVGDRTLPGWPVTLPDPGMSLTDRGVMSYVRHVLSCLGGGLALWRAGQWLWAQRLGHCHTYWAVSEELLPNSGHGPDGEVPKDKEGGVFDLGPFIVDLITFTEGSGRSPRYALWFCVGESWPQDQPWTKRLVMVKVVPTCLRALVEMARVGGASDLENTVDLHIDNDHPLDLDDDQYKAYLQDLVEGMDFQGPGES
Strand | fitted relative affinity [z-score]
GACGATATCTGTATCGAGACGTGCTAG | 0.676
TTAGGACTGCTTATCCGTTAGTGCTAG | -0.224
GACGGTGTCCTTCTCCTGACGTGCTAG | 4.06
TCACATTTTTTTTGCAAACTGTGCTAG | 0.453
TCACAGCTATTTTTAGGACTGTGCTAG | 0.00751
TCTGTTTTTGCTTTCCTTCTGTGCTAG | 3.99
GACGATATCGGGTATCGGGACGTGCTA | 0.539
GACGGTTTACTTATCCTGACGTGCTAG | 2.15
GACGATTCCAGTTTCGAGACGTGCTAG | 3.26
GACGGTTCCCTTATCCTGACGTGCTAG | 3.51
GACCATTTCGGGTATCGAGACGTGCTA | 2.3
GACGGTTTCCTTCTCCTGATGTGCTAG | 9.99
TTAGGGCTCCTTATCCTTTAGTGCTAG | 1.5
TTAGGACTTGGACTGGGTTAGTGCTAG | -0.995
TCAATTATAACACTCTTACTGTGCTAG | 0.4
TTAGGACTGGGTTTCCGTTAGTGCTAG | 1.62
CTTGGCTTCTCCCACAGGTGGTGCTAG | -0.664
TTAGGACTGGGGACTCGGTTAGTGCTA | -1.15
TCAAGTTGTACTTTCTAACTGTGCTAG | 1.75
TATAATTTTGTCATCTATAAGTGCTAG | 0.379
GCCGATTTCGGGTTTCGAGACGTGCTA | 3.58
TCAGCCCTCGGTTTACAACTGTGCTAG | -0.2
GACGATATCGGGACTGGAGATGTGCTA | 0.00755
ATTTTTTTTAGTGGATGAAAGTGCTAG | 0.743
GACGGTCTCGGAATCGGGACGTGCTAG | 1.23
